Measurements of several laboratories.
“And” joins repeats or separate records; there may be more than shown. ± marks the error that the study gave.

`CCC[C@H](NC(=O)/C(C#N)=C/c1cccc(Br)n1)c1ccccc1` gave an inhibition of 94.1% (BT-16; cell viability, MTT; 10 µM, 72 h).
`CCn1cc(-c2cc(Cn3ccnc3)cc3c2CCN([C@H](c2cc(OC)ccn2)C2CC2)C3=O)c(C(F)(F)F)n1` has an EC50 of over 30000 nM (MSTO-211H; cell growth, inhibitor; 120 h).
Under “YAP protein level”, `CC/C(=N\NC(=O)NCc1cccc(O)c1)c1ccc(O)c(C)c1O` is recorded as 0.87 ± 0.27 (SK-OV-3; Western blot; 3D culture in gellan gum; 20 µM, 1 h, unit not given; reference: β-actin).
`CCOc1cc(-c2nncn2C)ccc1Nc1ncc2cc(C)nc(NCC(C)(C)C)c2n1` has a GI50 of 87 nM (CAL-51; cell growth; 72 h).
For `CCn1cc(-c2cc(Cn3ccoc3=N)cc3c2CCN([C@@H](C)c2cc(OC)ccn2)C3=O)c(C(F)(F)F)n1`, the EC50 was 143 nM (Granta-519; cell growth, inhibitor; 120 h).
The inhibition of `CCS(=O)(=O)c1cccc(-c2cc(C(=O)NC3CCN(C)CC3)c(C)c3[nH]c4ncc(C)cc4c23)c1` is reported as 94.5% (BT-16; cell viability, MTT; 10 µM, 72 h).
`O=C(O)c1ccc(C2CCCN2Cc2ccc(-c3ccccc3[N+](=O)[O-])o2)cc1` (centres unmarked) — result for “CD4+Foxp3+ Treg reduction”: about 10% (mouse T cells; mixed lymphocyte reaction; concentration not given, 7 days; reference: DMSO).
With `CCc1c(-c2ccccc2)c(-c2ccccc2)nn1-c1ccccc1-c1cccc(OCC(=O)O)c1` the normalized response was 88.5% and 85.3% and 117% and 105% and 96.5% and 78.8% (mouse bone marrow macrophages; osteoclast differentiation, inhibitor, TRAP staining; 0.03 µM, added: M-CSF and RANKL).
The viability of `Nc1cccc2c1C(=O)N(C1CCC(=O)NC1=O)C2=O` (centres unmarked) is reported as 104% (bone marrow CD138+ myeloma cells; XTT; 0.6 µM, phenol red-free RPMI).
The inhibition of `COCCn1c2c([n+](Cc3cnccn3)c1C)C(=O)c1ccccc1C2=O` is reported as 95.3% (BT-16; cell viability, MTT; 10 µM, 72 h).
For `C=Cc1c2[n-]c(c1C)/C=c1\[n-]/c(c(C)c1C=C)=C\c1[n-]c(c(CCC(=O)O)c1C)/C=c1\[n-]c(c(C)c1CCC(=O)O)=C2.[Sn+4]`, “log2 fold change” read 2.01 (SH-SY5Y; RNA-seq, refers to: NEAT1; 5 µM, 5 h; reference: untreated).
The viability of `CC(=O)c1nn(-c2ccc(Cl)cc2)/c(=N/N=C(\C)c2ccc(NC(=O)c3ccc(C)cc3)cc2)s1` is reported as 18% (HepG2; 1.25 µM).
Under “G1 phase cells”, `C=CCn1c(=O)c2cnc(Nc3ccc(N4CCN(C)CC4)cc3)nc2n1-c1ccc2c(n1)[C@@](O)(CC)CC2` is recorded as 37% (Kuramochi; flow cytometry; concentration not given).
With `CC(C)NCC(O)c1ccc(O)c(O)c1` (centres unmarked) the sarcomere length was 1.8 µm (mouse ventricular cardiomyocytes; dose not given, 0.055 s).
For `Cc1nn(-c2nc3ccc(Cl)c(Cl)c3[nH]2)c(O)c1C1OC(=O)c2ccccc21` (centres unmarked), the inhibition was 12.9% and 18% and 12.4% and 8.72% and 11.3% and 13.6% (RAW-ISG; IFN luciferase reporter; 1.25 µM, added: HT-DNA).
`COc1cc([C@@H]2c3cc4c(cc3[C@@H](O[C@@H]3O[C@@H]5CO[C@@H](C)O[C@H]5[C@H](O)[C@H]3O)[C@H]3COC(=O)[C@H]23)OCO4)cc(OC)c1O` — result for “cell proliferation reduction”: 29.3% (HepG2 spheroids; flow cytometry, refers to: Ki67; 1.7 µM, 24 h; reference: solvent control).
`Cn1cc(-c2ccc(-c3cncc(Cl)c3N3CCC4(CCNC4=O)CC3)cc2)cn1` — result for “log2 fold change”: 5.99 (COLO 205; gene expression, microarray, refers to: PRDM1 mRNA; concentration not given, 6 h; reference: untreated cells).
Under “Ho-1 and Nqo1 up-regulation”, `O=C(O)CN(c1ccc(N(CC(=O)O)S(=O)(=O)c2cc3c(cc2Cl)OCCO3)c2ccccc12)S(=O)(=O)c1cc2c(cc1Cl)OCCO2` is recorded as “decreased” (BV-2, Nrf2 knockdown; refers to: Ho-1, Nqo1; 10 µM; reference: control BV-2 cells).
`CCCCc1nc2cc(/C=C/C(=O)NO)ccc2n1CCN(CC)CC` gave an inhibition of 87.7% (BT-16; cell viability, MTT; 10 µM, 72 h).
Under autophagy flux, `CCN(CC)CCCC(C)Nc1ccnc2cc(Cl)ccc12` (centres unmarked) is recorded as “inhibited” (N27 rat dopaminergic cells; dose not given, 36 h).

For quick reference, copied from above:
`CCC[C@H](NC(=O)/C(C#N)=C/c1cccc(Br)n1)c1ccccc1` gave an inhibition of 94.1% (BT-16; cell viability, MTT; 10 µM, 72 h).
`CCn1cc(-c2cc(Cn3ccnc3)cc3c2CCN([C@H](c2cc(OC)ccn2)C2CC2)C3=O)c(C(F)(F)F)n1` has an EC50 of over 30000 nM (MSTO-211H; cell growth, inhibitor; 120 h).
